Experimental data pooled from the literature.
Each numbered part is a random draw from the data of one study; scales do not carry over between parts.
Chain of UniProt Q99683 (whole entry, looked up): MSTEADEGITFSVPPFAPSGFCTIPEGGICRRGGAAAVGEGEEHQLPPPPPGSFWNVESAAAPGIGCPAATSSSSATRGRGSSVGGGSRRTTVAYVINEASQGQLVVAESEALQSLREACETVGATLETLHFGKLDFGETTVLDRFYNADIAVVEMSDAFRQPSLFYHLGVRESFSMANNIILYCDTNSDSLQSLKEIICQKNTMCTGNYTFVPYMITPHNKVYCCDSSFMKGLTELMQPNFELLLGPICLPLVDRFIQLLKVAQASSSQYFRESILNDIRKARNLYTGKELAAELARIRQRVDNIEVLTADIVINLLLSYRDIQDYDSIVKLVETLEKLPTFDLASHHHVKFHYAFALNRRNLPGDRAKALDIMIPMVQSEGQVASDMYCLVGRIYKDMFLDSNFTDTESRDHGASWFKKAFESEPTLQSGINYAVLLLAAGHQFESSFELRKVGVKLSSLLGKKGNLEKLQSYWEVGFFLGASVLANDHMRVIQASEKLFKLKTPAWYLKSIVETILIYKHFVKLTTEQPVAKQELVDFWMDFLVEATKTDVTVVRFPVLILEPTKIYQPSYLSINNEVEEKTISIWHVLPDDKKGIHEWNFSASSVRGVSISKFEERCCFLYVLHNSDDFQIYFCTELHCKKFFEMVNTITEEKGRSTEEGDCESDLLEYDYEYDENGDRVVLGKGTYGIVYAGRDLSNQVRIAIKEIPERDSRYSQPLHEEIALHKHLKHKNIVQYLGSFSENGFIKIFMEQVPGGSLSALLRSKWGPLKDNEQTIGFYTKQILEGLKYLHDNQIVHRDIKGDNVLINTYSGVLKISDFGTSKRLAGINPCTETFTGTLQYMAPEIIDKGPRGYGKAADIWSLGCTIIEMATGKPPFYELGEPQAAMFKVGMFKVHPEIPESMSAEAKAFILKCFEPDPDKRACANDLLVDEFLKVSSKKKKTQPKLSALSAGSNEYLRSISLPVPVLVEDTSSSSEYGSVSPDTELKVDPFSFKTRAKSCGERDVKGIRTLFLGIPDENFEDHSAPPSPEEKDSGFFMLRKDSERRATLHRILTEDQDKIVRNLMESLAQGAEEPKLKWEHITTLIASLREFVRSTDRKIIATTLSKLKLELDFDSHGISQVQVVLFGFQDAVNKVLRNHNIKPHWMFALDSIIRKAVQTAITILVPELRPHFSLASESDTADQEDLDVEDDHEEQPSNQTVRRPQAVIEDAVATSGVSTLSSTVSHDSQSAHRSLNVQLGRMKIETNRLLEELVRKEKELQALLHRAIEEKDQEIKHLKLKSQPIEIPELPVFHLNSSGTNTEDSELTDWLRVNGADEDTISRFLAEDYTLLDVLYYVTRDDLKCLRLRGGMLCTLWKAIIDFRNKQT
Chain of UniProt Q00535 (whole entry, looked up): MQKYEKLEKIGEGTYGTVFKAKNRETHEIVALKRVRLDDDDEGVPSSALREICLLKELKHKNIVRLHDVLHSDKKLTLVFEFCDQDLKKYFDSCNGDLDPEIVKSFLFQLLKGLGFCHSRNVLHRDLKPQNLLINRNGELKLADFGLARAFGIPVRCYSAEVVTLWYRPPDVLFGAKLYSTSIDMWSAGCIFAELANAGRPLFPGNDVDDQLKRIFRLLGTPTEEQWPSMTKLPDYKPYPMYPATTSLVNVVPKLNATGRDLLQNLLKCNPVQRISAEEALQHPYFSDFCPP
Chain of UniProt Q16659 (whole entry, looked up): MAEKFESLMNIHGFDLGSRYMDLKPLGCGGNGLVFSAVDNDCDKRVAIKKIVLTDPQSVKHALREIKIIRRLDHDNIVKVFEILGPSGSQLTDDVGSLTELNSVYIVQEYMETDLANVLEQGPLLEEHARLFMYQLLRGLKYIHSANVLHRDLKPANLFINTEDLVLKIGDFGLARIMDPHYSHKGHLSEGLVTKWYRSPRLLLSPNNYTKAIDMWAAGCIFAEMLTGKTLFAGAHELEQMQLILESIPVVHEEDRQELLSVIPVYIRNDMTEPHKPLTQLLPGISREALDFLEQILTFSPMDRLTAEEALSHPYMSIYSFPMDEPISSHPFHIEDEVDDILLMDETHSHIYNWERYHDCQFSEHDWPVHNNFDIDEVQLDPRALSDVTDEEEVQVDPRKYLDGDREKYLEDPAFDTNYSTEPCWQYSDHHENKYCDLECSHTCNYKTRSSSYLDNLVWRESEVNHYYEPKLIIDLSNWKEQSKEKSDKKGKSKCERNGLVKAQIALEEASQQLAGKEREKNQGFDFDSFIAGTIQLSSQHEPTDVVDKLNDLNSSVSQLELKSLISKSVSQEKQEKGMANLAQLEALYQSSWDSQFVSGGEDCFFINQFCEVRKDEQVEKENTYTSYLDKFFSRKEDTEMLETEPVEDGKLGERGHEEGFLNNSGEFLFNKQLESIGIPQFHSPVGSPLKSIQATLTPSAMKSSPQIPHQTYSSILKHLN
Chain of UniProt Q8TDR2 (whole entry, looked up): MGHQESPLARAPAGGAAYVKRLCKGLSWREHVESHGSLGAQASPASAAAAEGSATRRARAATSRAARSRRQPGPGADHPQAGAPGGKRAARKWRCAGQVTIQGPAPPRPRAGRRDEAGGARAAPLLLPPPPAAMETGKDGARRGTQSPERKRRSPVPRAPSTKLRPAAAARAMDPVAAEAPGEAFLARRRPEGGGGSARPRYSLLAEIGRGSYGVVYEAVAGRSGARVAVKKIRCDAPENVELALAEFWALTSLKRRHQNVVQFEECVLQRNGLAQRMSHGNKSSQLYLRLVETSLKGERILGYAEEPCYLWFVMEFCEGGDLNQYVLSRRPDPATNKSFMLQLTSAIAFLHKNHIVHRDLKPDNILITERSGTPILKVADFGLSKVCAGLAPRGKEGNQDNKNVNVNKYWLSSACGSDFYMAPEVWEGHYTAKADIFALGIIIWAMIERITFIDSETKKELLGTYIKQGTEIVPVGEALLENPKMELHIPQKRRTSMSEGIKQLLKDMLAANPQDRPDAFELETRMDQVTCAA
Chain of UniProt P15056 (whole entry, unmodified, looked up): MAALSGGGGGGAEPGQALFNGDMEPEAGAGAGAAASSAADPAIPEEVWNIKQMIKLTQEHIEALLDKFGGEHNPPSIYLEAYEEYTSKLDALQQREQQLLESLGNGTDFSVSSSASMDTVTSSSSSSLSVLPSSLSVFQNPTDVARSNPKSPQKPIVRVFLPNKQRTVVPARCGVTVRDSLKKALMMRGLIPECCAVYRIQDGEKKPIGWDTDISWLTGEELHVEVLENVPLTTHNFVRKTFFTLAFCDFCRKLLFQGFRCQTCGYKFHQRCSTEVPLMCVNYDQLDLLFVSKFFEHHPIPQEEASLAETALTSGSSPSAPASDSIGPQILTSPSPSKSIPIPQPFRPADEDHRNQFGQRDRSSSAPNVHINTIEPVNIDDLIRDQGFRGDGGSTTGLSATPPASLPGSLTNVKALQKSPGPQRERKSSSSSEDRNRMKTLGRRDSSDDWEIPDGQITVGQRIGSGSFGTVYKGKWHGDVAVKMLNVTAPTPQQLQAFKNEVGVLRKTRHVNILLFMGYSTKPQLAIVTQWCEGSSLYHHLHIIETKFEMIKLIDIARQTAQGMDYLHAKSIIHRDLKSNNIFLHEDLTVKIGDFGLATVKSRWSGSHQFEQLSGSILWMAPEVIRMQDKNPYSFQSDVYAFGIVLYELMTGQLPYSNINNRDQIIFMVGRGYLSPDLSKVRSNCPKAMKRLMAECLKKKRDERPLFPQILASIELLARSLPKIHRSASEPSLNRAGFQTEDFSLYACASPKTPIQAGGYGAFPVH
Chain of UniProt Q12866 (whole entry, looked up): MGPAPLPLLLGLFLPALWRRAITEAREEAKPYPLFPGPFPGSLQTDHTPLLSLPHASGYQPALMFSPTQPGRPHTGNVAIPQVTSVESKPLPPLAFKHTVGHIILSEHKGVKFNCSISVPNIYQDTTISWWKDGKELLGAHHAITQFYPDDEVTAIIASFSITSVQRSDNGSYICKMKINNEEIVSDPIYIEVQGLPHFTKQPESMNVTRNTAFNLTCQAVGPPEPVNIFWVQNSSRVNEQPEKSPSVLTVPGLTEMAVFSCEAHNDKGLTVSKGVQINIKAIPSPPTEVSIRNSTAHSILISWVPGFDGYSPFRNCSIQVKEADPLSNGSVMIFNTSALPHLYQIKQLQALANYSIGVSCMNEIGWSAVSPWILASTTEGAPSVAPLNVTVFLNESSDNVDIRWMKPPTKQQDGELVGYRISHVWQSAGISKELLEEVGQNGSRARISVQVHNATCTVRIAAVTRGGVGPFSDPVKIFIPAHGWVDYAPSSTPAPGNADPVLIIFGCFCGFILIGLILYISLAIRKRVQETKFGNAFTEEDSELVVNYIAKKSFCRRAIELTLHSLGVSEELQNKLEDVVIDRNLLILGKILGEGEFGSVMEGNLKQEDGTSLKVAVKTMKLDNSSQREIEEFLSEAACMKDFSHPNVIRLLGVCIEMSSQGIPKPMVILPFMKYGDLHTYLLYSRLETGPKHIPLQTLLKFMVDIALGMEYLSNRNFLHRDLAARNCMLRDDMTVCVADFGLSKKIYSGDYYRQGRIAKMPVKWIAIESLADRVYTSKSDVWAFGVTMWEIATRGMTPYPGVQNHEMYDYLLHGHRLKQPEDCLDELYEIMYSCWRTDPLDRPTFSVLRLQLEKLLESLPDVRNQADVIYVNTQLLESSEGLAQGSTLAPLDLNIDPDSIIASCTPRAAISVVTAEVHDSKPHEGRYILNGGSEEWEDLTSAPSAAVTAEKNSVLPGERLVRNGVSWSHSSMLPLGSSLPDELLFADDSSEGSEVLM
Chain of UniProt Q6P2M8 (whole entry, looked up): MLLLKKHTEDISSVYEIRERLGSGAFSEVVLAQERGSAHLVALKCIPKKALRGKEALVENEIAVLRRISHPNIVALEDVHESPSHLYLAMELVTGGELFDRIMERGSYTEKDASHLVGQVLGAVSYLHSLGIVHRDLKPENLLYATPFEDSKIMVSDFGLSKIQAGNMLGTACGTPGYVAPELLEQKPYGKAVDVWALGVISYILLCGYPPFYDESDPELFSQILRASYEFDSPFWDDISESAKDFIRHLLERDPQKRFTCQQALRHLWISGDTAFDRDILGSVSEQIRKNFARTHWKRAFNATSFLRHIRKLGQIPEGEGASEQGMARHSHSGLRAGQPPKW

Study 1 — technique: phase 2a clinical trial
SMILES: CC(C)n1cnc(-c2ccc(F)cc2)c1-c1ncc(C(=O)Nc2ccc(N3CCN(C)CC3)cc2)[nH]1
Species: patients with idiopathic pulmonary fibrosis
| assay | setting | patients with treatment-emergent adverse events |
| --- | --- | --- |
| measured: drug-induced liver injury | dose not given, Grade 2, all drug arms total | 0% |
| measured: left ventricular dysfunction | 60 mg once daily, Grade 1 | 0% |
| measured: lumbar vertebral fracture | dose not given, Grade 1, maximum intensity, all drug arms total | 0% |
| measured: protein urine present | 30 mg once daily, Grade 3 | 0% |
| measured: left bundle branch block | 30 mg once daily, Grade 3 | 0% |
| measured: carbon dioxide decreased | 60 mg once daily, Grade 1 | 0% |
| measured: first degree atrioventricular block | 60 mg once daily, Grade 3 | 0% |

Study 2 — organism: Sarcocystis neurona; observed: parasite growth; concentration: 10 µM; time: 96 h; notes: first screen; reference: untreated
| SMILES | log2 fold change |
| --- | --- |
| CC(C)(C)NC(=O)[C@H]1CC[C@H]2[C@@H]3CC[C@H]4NC(=O)C=C[C@]4(C)[C@H]3CC[C@]12C | -1.16 |
| CO/N=C(\C(=O)N[C@@H]1C(=O)N2C(C(=O)O)=C(COC(C)=O)CS[C@H]12)c1csc(N)n1 | 0.26 |
| COc1ccc(Cl)cc1C(=O)NCCc1ccc(S(=O)(=O)NC(=O)NC2CCCCC2)cc1 | 0.25 |
| COc1ccc(C2CNC(=O)C2)cc1OC1CCCC1 (stereo not drawn) | -0.02 |
| O=C(c1ccccc1)c1ccc2n1CCC2C(=O)O (stereo not drawn) | 0.3 |
| CCCCC[C@H](O)/C=C/[C@H]1[C@H](O)CC(=O)[C@@H]1CCCCCCC(=O)O | 0.17 |

Study 3 — cell line: A-375; concentration: 100 µM; time: 60 h
| Structure (SMILES) | viability [%] |
| --- | --- |
| O=C1CC[C@@H](C(=O)N2CSC[C@H]2C(=O)O)N1 | 107 |
| CO/N=C(\C(=O)N[C@@H]1C(=O)N2C(C(=O)O)=C(CSc3nnnn3C)CS[C@H]12)c1csc(N)n1 | 102 |
| C[C@H](CCC(=O)O)[C@H]1CC[C@H]2[C@@H]3[C@H](O)C[C@@H]4C[C@H](O)CC[C@]4(C)[C@H]3C[C@H](O)[C@]12C | 103 |
| OC[C@H]1O[C@@H](Oc2ccc(O)cc2)[C@H](O)[C@@H](O)[C@@H]1O | 103 |

Study 4 — observed: cell-free assay; technique: competition with immobilised ligand; concentration: 1 µM
SMILES: Cc1cc(-n2nc(Cc3cc(F)cc(C(F)(F)F)c3)nc2C)ccc1C(N)=O
| target | remaining binding |
| --- | --- |
| BRAF (Homo sapiens, UniProt P15056, V600E) | 100% |
| STK35 (Homo sapiens, UniProt Q8TDR2) | 100% |
| CSNK1G2 (Homo sapiens, UniProt P78368) | 79% |
| RIPK2 (Homo sapiens, UniProt O43353) | 100% |
| PNCK (Homo sapiens, UniProt Q6P2M8) | 100% |
| FLT3 (Homo sapiens, UniProt P36888, R834Q) | 77% |
| MAPK6 (Homo sapiens, UniProt Q16659) | 100% |
| CDK5 (Homo sapiens, UniProt Q00535) | 100% |
| PIP5K1A (Homo sapiens, UniProt Q99755) | 100% |
| PTK2B (Homo sapiens, UniProt Q14289) | 100% |
| Tyrosine-protein kinase ABL1, non-phosphorylated (ABL1, Homo sapiens, UniProt P00519, T315I) | 100% |
| PTK2 (Homo sapiens, UniProt Q05397) | 100% |
| PIK3CA (Homo sapiens, UniProt P42336, E545K) | 71% |
| MAP3K5 (Homo sapiens, UniProt Q99683) | 100% |
| MERTK (Homo sapiens, UniProt Q12866) | 100% |

Further values, each from its own experiment
| SMILES | cell line | assay | setting | measurement | result |
| --- | --- | --- | --- | --- | --- |
| CC[C@@H](C)c1nc2cc(Nc3ccnc4ccc(S(=O)(=O)C(C)C)cc34)ccc2s1 | HT-29 | necroptosis | with: TNF-α, Smac mimetic, z-VAD | EC50 | 1.97 µM |

Repeated from above (study 2):
| SMILES | log2 fold change |
| --- | --- |
| COc1ccc(C2CNC(=O)C2)cc1OC1CCCC1 (stereo not drawn) | -0.02 |
| O=C(c1ccccc1)c1ccc2n1CCC2C(=O)O (stereo not drawn) | 0.3 |
| CCCCC[C@H](O)/C=C/[C@H]1[C@H](O)CC(=O)[C@@H]1CCCCCCC(=O)O | 0.17 |
